Measured values from different studies.
A part holds a random share of what one study measured. Several values in a cell are separate wells, animals, samples, runs or records.
Chain of UniProt Q8N5S9 (whole entry, looked up): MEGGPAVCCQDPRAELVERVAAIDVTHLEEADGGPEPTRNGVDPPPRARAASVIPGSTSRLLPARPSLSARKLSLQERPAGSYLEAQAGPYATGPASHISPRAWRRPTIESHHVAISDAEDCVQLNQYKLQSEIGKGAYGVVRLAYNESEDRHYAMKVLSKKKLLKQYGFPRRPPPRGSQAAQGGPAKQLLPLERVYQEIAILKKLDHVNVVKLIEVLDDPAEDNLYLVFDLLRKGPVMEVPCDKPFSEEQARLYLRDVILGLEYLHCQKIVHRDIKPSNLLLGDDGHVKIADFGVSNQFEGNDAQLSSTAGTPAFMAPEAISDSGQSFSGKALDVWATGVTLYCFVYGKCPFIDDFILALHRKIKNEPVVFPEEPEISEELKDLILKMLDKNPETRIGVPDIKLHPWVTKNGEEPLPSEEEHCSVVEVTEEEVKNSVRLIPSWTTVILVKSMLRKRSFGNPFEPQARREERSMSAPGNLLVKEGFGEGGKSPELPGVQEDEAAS
Chain of UniProt P29317 (whole entry, looked up): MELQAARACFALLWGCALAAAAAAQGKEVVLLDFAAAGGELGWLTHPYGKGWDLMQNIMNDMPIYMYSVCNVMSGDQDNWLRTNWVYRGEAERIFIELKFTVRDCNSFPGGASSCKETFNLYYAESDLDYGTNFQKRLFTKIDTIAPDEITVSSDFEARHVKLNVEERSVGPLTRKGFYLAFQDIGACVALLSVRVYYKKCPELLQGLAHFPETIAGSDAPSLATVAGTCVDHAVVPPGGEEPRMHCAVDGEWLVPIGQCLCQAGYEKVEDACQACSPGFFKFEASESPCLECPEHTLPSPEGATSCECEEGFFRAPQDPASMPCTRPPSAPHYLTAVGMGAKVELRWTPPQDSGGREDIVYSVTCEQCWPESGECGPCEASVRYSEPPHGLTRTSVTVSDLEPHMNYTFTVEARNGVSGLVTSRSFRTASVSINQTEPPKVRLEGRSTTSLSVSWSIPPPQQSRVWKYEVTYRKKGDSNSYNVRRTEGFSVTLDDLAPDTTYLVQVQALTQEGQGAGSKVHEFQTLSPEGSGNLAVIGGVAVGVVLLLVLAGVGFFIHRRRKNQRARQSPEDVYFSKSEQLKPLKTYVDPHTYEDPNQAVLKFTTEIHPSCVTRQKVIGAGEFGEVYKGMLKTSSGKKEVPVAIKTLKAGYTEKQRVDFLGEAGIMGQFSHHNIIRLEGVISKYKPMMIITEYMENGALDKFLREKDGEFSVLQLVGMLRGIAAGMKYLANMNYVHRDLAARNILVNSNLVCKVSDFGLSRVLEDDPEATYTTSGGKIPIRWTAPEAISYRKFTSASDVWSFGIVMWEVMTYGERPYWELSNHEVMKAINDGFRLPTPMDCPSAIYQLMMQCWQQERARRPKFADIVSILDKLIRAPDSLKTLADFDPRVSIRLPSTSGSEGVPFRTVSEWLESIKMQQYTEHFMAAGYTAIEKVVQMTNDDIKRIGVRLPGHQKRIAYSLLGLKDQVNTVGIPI
Chain of UniProt Q9H0K1 (whole entry, looked up): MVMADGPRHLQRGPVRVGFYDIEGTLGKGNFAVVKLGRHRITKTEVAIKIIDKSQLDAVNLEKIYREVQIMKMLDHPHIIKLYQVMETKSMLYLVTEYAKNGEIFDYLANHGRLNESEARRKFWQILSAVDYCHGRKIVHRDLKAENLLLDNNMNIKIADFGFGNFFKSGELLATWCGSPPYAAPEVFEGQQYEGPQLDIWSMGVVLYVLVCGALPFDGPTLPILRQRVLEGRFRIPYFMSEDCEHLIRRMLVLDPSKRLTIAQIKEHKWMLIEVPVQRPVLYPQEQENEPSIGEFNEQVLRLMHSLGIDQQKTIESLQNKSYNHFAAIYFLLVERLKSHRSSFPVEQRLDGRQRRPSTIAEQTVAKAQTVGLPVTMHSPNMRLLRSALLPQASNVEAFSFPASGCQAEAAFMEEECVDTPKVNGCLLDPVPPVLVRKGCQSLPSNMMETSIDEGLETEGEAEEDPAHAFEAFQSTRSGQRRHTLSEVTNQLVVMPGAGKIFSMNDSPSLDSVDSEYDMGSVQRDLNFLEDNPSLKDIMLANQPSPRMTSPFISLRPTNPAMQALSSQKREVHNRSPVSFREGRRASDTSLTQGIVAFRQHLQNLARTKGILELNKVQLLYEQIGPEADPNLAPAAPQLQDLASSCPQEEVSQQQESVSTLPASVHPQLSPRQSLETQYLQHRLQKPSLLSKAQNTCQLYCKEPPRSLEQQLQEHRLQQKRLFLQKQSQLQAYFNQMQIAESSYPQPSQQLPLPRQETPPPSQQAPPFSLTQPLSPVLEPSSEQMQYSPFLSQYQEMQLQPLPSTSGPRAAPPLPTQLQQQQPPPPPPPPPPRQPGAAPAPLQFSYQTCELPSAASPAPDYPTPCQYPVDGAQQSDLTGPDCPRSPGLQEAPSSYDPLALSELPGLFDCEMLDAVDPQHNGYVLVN
Chain of UniProt P23458 (whole entry, looked up): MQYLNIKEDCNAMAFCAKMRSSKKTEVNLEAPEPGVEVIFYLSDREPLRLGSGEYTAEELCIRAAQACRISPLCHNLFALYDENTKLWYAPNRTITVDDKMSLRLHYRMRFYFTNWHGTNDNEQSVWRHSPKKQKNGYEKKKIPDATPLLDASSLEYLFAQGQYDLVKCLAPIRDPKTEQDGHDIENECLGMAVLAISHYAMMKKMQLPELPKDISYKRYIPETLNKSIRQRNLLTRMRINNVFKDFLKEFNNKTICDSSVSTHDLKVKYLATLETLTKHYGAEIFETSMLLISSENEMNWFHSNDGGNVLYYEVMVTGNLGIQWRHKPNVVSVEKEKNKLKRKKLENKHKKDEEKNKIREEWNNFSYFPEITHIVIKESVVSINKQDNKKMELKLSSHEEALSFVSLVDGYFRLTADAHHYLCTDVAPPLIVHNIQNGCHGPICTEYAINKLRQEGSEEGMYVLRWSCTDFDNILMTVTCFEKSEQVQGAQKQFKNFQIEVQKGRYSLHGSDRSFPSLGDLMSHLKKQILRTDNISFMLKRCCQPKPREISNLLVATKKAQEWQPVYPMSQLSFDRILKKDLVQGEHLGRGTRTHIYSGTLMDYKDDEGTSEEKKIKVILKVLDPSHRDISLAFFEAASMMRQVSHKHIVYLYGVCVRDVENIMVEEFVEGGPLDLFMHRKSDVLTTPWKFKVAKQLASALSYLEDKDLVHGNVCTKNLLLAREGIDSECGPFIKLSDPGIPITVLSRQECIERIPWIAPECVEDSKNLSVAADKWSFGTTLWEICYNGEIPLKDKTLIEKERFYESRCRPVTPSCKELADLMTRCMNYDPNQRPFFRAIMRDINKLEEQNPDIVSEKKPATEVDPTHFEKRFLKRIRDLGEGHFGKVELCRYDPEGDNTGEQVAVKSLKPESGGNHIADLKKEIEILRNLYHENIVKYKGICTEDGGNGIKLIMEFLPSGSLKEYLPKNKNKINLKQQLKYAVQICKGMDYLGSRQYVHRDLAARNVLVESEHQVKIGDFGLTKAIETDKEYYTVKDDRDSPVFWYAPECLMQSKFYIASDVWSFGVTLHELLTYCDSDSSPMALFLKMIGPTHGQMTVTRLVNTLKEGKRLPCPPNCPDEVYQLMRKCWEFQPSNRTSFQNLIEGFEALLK
Chain of UniProt P51812 (whole entry, looked up): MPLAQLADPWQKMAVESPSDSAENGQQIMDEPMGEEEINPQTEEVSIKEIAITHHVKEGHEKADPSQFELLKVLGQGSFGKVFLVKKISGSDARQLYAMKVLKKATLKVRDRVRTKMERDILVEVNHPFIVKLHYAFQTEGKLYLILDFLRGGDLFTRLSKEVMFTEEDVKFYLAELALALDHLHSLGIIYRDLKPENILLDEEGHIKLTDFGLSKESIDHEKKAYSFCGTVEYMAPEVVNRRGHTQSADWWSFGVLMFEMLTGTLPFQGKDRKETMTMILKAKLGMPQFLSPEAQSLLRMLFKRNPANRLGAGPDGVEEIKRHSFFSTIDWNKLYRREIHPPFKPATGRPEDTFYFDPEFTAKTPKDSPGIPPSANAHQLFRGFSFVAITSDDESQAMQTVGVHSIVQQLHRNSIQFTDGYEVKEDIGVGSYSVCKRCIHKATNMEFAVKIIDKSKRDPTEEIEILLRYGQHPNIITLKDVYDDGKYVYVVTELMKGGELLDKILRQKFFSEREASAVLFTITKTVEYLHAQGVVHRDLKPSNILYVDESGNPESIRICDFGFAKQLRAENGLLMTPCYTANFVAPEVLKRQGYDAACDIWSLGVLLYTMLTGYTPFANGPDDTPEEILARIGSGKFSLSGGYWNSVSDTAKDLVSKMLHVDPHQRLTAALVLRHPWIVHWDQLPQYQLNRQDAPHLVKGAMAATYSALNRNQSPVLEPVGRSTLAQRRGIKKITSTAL
Chain of UniProt P48730 (whole entry, looked up): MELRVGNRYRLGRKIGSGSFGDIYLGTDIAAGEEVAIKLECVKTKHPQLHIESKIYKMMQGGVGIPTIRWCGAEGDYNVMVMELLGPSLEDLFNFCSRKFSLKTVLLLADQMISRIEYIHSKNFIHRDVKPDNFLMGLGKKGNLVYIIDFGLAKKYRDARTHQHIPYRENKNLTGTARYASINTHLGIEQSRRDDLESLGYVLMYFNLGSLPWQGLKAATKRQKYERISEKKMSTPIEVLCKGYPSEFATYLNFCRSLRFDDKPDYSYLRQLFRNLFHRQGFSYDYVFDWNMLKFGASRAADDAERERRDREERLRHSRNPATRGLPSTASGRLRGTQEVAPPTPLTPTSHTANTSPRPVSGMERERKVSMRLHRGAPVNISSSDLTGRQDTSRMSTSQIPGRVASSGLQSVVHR

Set 1
SMILES: Nc1nccc(-c2c(-c3ccc(F)cc3)ncn2C2CCNCC2)n1
Effect on: enzyme activity
Mode: inhibitor
Tested at: 0.5 µM
Reference: control
It gave 78% for remaining activity (Ephrin type-A receptor 6 (EPHA6, Homo sapiens, UniProt Q9UF33)).
The remaining activity was 89.3% (Vascular endothelial growth factor receptor 1 (FLT1, Homo sapiens, UniProt P17948)).
For Calcium/calmodulin-dependent protein kinase type 1 (CAMK1, Homo sapiens, UniProt Q14012): remaining activity read 107%.
It gave 102% for remaining activity (Ephrin type-A receptor 2 (EPHA2, Homo sapiens, UniProt P29317)).
For Serine/threonine-protein kinase SIK2 (SIK2, Homo sapiens, UniProt Q9H0K1): remaining activity read 64.7%.
The remaining activity was 98.2% (Dual specificity protein kinase CLK1 (CLK1, Homo sapiens, UniProt P49759)).
SRSF protein kinase 1 (SRPK1, Homo sapiens, UniProt Q96SB4) — remaining activity: 103%.
It gave 92.2% for remaining activity (Ribosomal protein S6 kinase alpha-3 (RPS6KA3, Homo sapiens, UniProt P51812)).
For Serine/threonine-protein kinase PAK 1 (PAK1, Homo sapiens, UniProt Q13153): remaining activity read 97.4%.
The remaining activity was 1.25% (Casein kinase I isoform delta (CSNK1D, Homo sapiens, UniProt P48730)).
The remaining activity was 103% (Calcium/calmodulin-dependent protein kinase kinase 1 (CAMKK1, Homo sapiens, UniProt Q8N5S9)).
For Protein kinase C zeta type (PRKCZ, Homo sapiens, UniProt Q05513): remaining activity read 106%.
Tyrosine-protein kinase Tec (TEC, Homo sapiens, UniProt P42680) — remaining activity: 110%.
For Tyrosine-protein kinase receptor TYRO3 (TYRO3, Homo sapiens, UniProt Q06418): remaining activity read 96.9%.
For Cyclin-dependent kinase 2, with cyclin E (CDK2, Homo sapiens, UniProt P24941): remaining activity read 92.1%.
Serine/threonine-protein kinase PAK 6 (PAK6, Homo sapiens, UniProt Q9NQU5) — remaining activity: 111%.
It gave 98% for remaining activity (Mitogen-activated protein kinase kinase kinase 20 (MAP3K20, Homo sapiens, UniProt Q9NYL2)).
Casein kinase I isoform epsilon (CSNK1E, Homo sapiens, UniProt P49674) — remaining activity: 2.39%.
For Tyrosine-protein kinase JAK1 (JAK1, Homo sapiens, UniProt P23458): remaining activity read 104%.
The remaining activity was 99.7% (Dual specificity protein kinase CLK2 (CLK2, Homo sapiens, UniProt P49760)).
Protein kinase C theta type (PRKCQ, Homo sapiens, UniProt Q04759) — remaining activity: 107%.
For Serine/threonine-protein kinase Sgk2 (SGK2, Homo sapiens, UniProt Q9HBY8): remaining activity read 96.9%.
Insulin-like growth factor 1 receptor (IGF1R, Homo sapiens, UniProt P08069) — remaining activity: 104%.

Set 2
Cell line: mouse MPNST tumor cells
Method: high-content nuclear imaging
Measured: cell number
Tested at: 10 µM
Time: 12 h
Setting: mean of 2 replicates
Reference: plate mean
Direction: higher = more cells
With Cc1ccc(C(=O)N(CCCN)[C@@H](c2nc3cc(Cl)ccc3c(=O)n2Cc2ccccc2)C(C)C)cc1 the nuclei count was -5.41 z-score.
The nuclei count of CC(=O)OCC(=O)C1(O)CCC2C3CCC4=CC(=O)CCC4(C)C3C(O)CC21C (stereo not shown) is reported as 2.19 z-score.
The nuclei count of N#Cc1ccc(C(c2ccc(C#N)cc2)n2cncn2)cc1 is reported as -0.0585 z-score and -0.13 z-score.
FC(F)(F)c1cc(NC(=S)Nc2ccc(Br)cc2-c2nn[nH]n2)cc(C(F)(F)F)c1 has a nuclei count of 1.16 z-score.
For COc1cc(N2CCOCC2)ccc1Nc1ncc(Cl)c(Nc2ccccc2NS(C)(=O)=O)n1, the nuclei count was 1.47 z-score.
The nuclei count of COC(=O)c1ccc(N2CCN(C)CC2)c(NC(=O)c2cccc(OC)c2)c1 is reported as 0.267 z-score.
The nuclei count of CC(=O)[C@@]12O[C@](C)(c3ccccc3)O[C@@H]1C[C@H]1[C@@H]3CCC4=CC(=O)CC[C@]4(C)[C@H]3CC[C@@]12C is reported as 2.29 z-score.

Set 3
Cell line: normal organoid sample H
Method: CellTiter-Glo
Species: human
Matrix: normal-adjacent epithelium
Tested at: 0.1 µM
Reference: DMSO
CCOC(=O)c1cc2cc(-c3cc(C(=O)NCc4ccc(C(=O)O)cc4)nn3C)ccc2[nH]1 has a viability of 93.8% and 114%.
O=C(c1ccc(F)cc1)N1CC(COc2ccc(Br)cc2)(C(=O)O)C1 has a viability of 106% and 117%.
O=C(Nc1ccc(-n2nc(-c3cccnc3)cc2C(F)(F)F)cn1)c1ccc(-c2ccccc2)c(F)c1 gave a viability of 104%.
O=C(N[C@H]1CCCCC/C=C\C2C[C@@]2(C(=O)O)NC(=O)[C@@H]2C[C@@H](Oc3ccncc3)CN2C1=O)OC1CCCC1 (stereo partly shown) has a viability of 97.1% and 95.1%.
CCS(=O)(=O)c1cc2cc(C[C@@](O)(CC(C)(C)c3ccc(F)cc3C(N)=O)C(F)(F)F)[nH]c2cn1 has a viability of 119% and 91.2%.
CCCOc1ccc([C@@H]2[C@@H](C(=O)O)[C@H](c3ccc4c(c3)OCO4)CN2CC(=O)Nc2c(CC)cccc2CC)cc1 gave a viability of 151% and 118%.
Cc1nc(Cc2cccc(C(F)(F)F)c2)sc1-c1ccc(C(N)=O)nc1 has a viability of 84.8% and 66.7%.
With Cc1c[nH]c2nccc(Oc3c(F)cc(Nc4cc(Cl)nc(N)n4)cc3F)c12 the viability was 108% and 125%.
The viability of COCCOc1nc(-c2ccc(Cl)nc2)nc2c1CN(C(=O)c1ncn3ccccc13)CC2 is reported as 104% and 171%.

Set 4
Species: human
Matrix: microsomes or S9
Tested at: 2 µM
Time: 0.5 h
The remaining compound of CCC1CCCCN1Cc1ccc(CNC(=O)c2noc3c2CCc2sccc2-3)o1 (stereo not shown) is reported as 1.3%.
The remaining compound of NS(=O)(=O)c1cccc(S(=O)(=O)N2CCCc3c2cccc3S(N)(=O)=O)c1 is reported as 97.9%.
Nc1ccc2nc(CCCc3nc4ccc(N)cc4s3)sc2c1 has a remaining compound of 79%.
Cc1cc2c(nc1C)sc1c(=O)n(C(C)C)cnc12 gave a remaining compound of 9.8%.
With COc1cc2c(c(Br)c1OC)CN(c1cc(C(=O)O)ccc1C)C2=O the remaining compound was over 99%.
O=S(=O)(Cc1ccccc1)CC(O)Cn1cccn1 (stereo not shown) gave a remaining compound of 95.2%.
The remaining compound of CC1(C)CC(CNCCC(c2ccc(F)cc2)c2ccco2)CCO1 (stereo not shown) is reported as 26.1%.
The remaining compound of O=C(Nc1n[nH]c(Cc2ccc(F)cc2)n1)c1ccn2nnnc2c1 is reported as 31.1%.
The remaining compound of COc1ccc(-c2cn3c4ccccc4nc3n2CCN2CCN(C)CC2)cc1 is reported as 58.4%.
With CCOC(=O)N1CCN(C(=O)C2=C(C)C(=O)OC23CCN(S(=O)(=O)CC)CC3)CC1 the remaining compound was over 99%.

Repeated from above (set 1):
For Serine/threonine-protein kinase Sgk2 (SGK2, Homo sapiens, UniProt Q9HBY8): remaining activity read 96.9%.
For Calcium/calmodulin-dependent protein kinase type 1 (CAMK1, Homo sapiens, UniProt Q14012): remaining activity read 107%.
